Experimental data of several laboratories.
Protocols differ between the studies behind these lines.
Target: Homeodomain-interacting protein kinase 4 (HIPK4, Homo sapiens, UniProt Q8NE63)

SMILES	assay	setting	scale	endpoint	value
Cc1cc(NC(=O)[C@H](O)c2cc(F)cc(F)c2)ccc1-c1cnc(N)c(C(=O)NC(C)C)c1	binding, competition with immobilised ligand	1 µM		remaining binding	77%
C=CC(=O)N1Cc2nc(-c3cc(-c4cc(Cl)cnc4Cl)c(F)cc3F)n(-c3ccncn3)c2C1	cell-free assay, inhibitor	1 µM		inhibition	3.9%
C=CC(=O)Nc1cccc(-c2cnc3[nH]cc(C(=O)NC(C)(C)C)c3n2)c1	kinase activity	0.1 µM		inhibition	37%
Cc1ccc(-c2c(/C=C(\C#N)C(=O)NC(C)C)n(CCCO)c3ncnc(N)c23)cc1	cell-free assay, competition with immobilised ligand	1 µM		remaining binding	71%
Cc1cccc(O[C@H]2CCC[C@@H](C(C)CNCc3ccncc3)C2)c1 (relative stereo)	enzyme activity, inhibitor	1 µM		inhibition	0%
CCn1cc(C(=O)O)c(=O)c2c(N)c(F)c(NC3CCCCC3)cc21	kinase activity	0.1 µM, added: ATP at Km		inhibition	-0.7%
CNC1C[S+]2CC[S+]3CC[S+](C1)[Ru-4]321([N]=C=S)[n]2c3ccc(OC)cc3c3c4c(c5cc(F)c[n+]1c5c32)C(=O)NC4=O (centres unmarked)	KinomeScan	0.1 µM	baseline: untreated	remaining binding	73%
COC(=O)[C@@]1(C)C=C(C(=O)Nc2cccc(C(=O)Nc3ccc(Nc4nccc(-c5cccnc5)n4)c(C)c3)c2)C(=O)CC1	enzyme activity, inhibitor, radiometric	1 µM		remaining activity	94%
CNC(=O)C1CCN(c2cc(C)c(F)cc2NC(=O)c2ccc(-c3cc(O)ccc3C)c(C)c2)CC1	binding, competition with immobilised ligand	1 µM		remaining binding	100%
COc1cc(Nc2nccc(-c3cnn4nc(OC)ccc34)n2)cc(C(F)(F)F)c1	binding, competition with immobilised ligand	1 µM		remaining binding	100%
O=C(Cc1ccc(OCc2ccccc2)cc1)NC1(C(=O)O)CCN(C(=O)c2ccc(-c3cccc(Cl)c3)cc2)CC1	enzyme activity, inhibitor	10 µM		activity vs control	134%
CN1CC[C@@H](COc2cnc(C#N)cc2-c2ccn3nc(NC(=O)C4CC4)cc3c2)C1	enzyme activity, inhibitor	1 µM		inhibition	3%
C=CC(=O)N1CCCC(n2c(=O)c3ncccc3n(Cc3ccc(Oc4ccccc4)cc3)c2=O)C1 (centres unmarked)	cell-free assay, competition with immobilised ligand	1 µM		remaining binding	76%
NC(=O)C[C@H]1CCc2sc3ncnc(O[C@H]4CC[C@H](N5CCOCC5)CC4)c3c21	enzyme activity, inhibitor	10 µM		inhibition	4%

For quick reference, copied from above:
SMILES	assay	setting	scale	endpoint	value
O=C(Cc1ccc(OCc2ccccc2)cc1)NC1(C(=O)O)CCN(C(=O)c2ccc(-c3cccc(Cl)c3)cc2)CC1	enzyme activity, inhibitor	10 µM		activity vs control	134%
